Experimental data pooled from the literature.

CC(C)C[C@H](NC(=O)CNC(=O)c1cc(Cl)ccc1Cl)B(O)O
patients with adverse event (measured: Neutropenia, all grades; newly diagnosed multiple myeloma patients; oral, dose not given, maintenance phase, new onset, cycle 17 or later): 0%

Cc1cc(NC2CCN(C(=O)OC3CCN(C(=O)/C=C/CN(C)C)C3)CC2)n2ncc(C(C)C)c2n1 (stereo not drawn)
patients with adverse event (Phase I dose escalation CTCAE v4.0, measured: small intestinal obstruction; patients with advanced solid tumours; dose not given, Total dosing grade 3 or higher): 4%

Cc1cc(-c2nnc(N)nc2-c2ccc(F)cc2)cc(Cl)n1
patients with immune-mediated AE (measured: Hypothyroidism; IO-naive colorectal cancer patients; oral, dose not given, treatment-related, all grades): 0%

COc1cc(Nc2ncc3c(n2)-c2ccc(Cl)cc2C(c2c(F)cccc2OC)=NC3)ccc1C(=O)O
patients with adverse event (measured: Fever, grade 3; cancer patients, phase 1/2; oral, dose not given, together with: pembrolizumab): 4%

C[C@@H](Nc1cc(F)cc(F)c1)c1cc(C(=O)N(C)C)cc2c(=O)cc(N3CCOCC3)oc12
patients discontinuing for AE (measured: Colitis; advanced solid tumour patients; oral, dose not given, dose finding): 4.8%

C=CC(=O)Nc1cc(Nc2nccc(-c3cn(C)c4ccccc34)n2)c(OC)cc1N(C)CCN(C)C
patients with treatment-related AEs (measured: Pneumonitis grade ≥3; EGFR-mutant MET-altered NSCLC; oral, study): 0%

CCO[C@H]1CCN(Cc2c(OC)cc(C)c3[nH]ccc23)[C@H](c2ccc(C(=O)O)cc2)C1
patients with adverse event (measured: Nasopharyngitis; PNH patients, active haemolysis; oral, 100 mg twice daily, extension phase): 0%

C=CC(=O)NC1CCN(c2ncc3ncnc(Nc4ccc(Oc5ccc6c(c5)ncn6C)c(C)c4)c3n2)CC1
patients with Diarrhea (male patients; oral, dose not given, treatment-related adverse events): 0%

O=C(Nc1nc2cccc(-c3ccc(CN4CCS(=O)(=O)CC4)cc3)n2n1)C1CC1
patients with adverse event (measured: anaemia; rheumatoid arthritis patients; oral, 150 mg once daily, 4 weeks, any relatedness): 0%

NC(=O)N1c2ccccc2C=Cc2ccccc21
patients with Constipation (male patients; oral, dose not given, treatment-related adverse events): 20%

CNC(=O)c1ccc(-c2cnc3ncc(Cc4ccc5ncccc5c4)n3n2)cc1F
patients with adverse event (measured: Dizziness, all grades; cancer patients; oral, 600 mg twice daily, other expansion cohort, any causality): 11%

CCOc1c([C@H](C)n2nc(C)c3c(N)ncnc32)cc(Cl)c(F)c1[C@@H]1CNC(=O)C1
patients (measured: QTcF change ≤30 ms; previously treated B-cell malignancy; oral, 15 mg once daily, overall population; relative to: baseline): 100%

COc1cc2nccc(Oc3ccc(NC(=O)c4cc5c(n(-c6ccccc6)c4=O)CCCC5=O)nc3)c2cc1OC
patients with TEAEs (patients with relapsed/refractory AML; oral, 10 mg once daily): 100%

CNC(=O)c1cc(Oc2ccc(NC(=O)Nc3cc(C(C)(C)C)nn3-c3ccc4ncccc4c3)c(F)c2)ccn1
patients with nervous system disorders (patients; oral, dose not given, cycles 1 and 2, Medium Cmax subgroup): 47%

COc1ccc([C@@H](O)c2cc(-c3ncnc4cc(N5CCOCC5)ccc34)c(F)cc2Cl)nn1
patients with investigation abnormalities (locally advanced rectal cancer patients; 150 mg, drug-related adverse events, together with: capecitabine and radiotherapy): 33%

A few entries again:
C=CC(=O)NC1CCN(c2ncc3ncnc(Nc4ccc(Oc5ccc6c(c5)ncn6C)c(C)c4)c3n2)CC1
patients with Diarrhea (male patients; oral, dose not given, treatment-related adverse events): 0%

Cc1cc(NC2CCN(C(=O)OC3CCN(C(=O)/C=C/CN(C)C)C3)CC2)n2ncc(C(C)C)c2n1 (stereo not drawn)
patients with adverse event (Phase I dose escalation CTCAE v4.0, measured: small intestinal obstruction; patients with advanced solid tumours; dose not given, Total dosing grade 3 or higher): 4%
